Published values from different studies.
Each line is one published result; not all experiments were run side by side. ± marks the error that the study gave.
CBF1: CBF1 1-351 (Saccharomyces cerevisiae, UniProt P17106)
Sequence of UniProt P17106 (whole entry, looked up): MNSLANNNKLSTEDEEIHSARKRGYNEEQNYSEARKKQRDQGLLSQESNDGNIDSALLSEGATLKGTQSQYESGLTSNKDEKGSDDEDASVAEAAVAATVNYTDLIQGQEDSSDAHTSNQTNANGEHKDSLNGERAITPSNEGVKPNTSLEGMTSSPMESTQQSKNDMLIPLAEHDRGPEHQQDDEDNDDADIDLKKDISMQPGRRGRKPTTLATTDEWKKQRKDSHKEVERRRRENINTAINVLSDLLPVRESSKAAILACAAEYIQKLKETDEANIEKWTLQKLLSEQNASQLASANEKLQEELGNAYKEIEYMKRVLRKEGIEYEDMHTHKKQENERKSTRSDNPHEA
TGM2: TGM2 2-687 (Homo sapiens, UniProt P21980)
Sequence of UniProt P21980 (whole entry, looked up): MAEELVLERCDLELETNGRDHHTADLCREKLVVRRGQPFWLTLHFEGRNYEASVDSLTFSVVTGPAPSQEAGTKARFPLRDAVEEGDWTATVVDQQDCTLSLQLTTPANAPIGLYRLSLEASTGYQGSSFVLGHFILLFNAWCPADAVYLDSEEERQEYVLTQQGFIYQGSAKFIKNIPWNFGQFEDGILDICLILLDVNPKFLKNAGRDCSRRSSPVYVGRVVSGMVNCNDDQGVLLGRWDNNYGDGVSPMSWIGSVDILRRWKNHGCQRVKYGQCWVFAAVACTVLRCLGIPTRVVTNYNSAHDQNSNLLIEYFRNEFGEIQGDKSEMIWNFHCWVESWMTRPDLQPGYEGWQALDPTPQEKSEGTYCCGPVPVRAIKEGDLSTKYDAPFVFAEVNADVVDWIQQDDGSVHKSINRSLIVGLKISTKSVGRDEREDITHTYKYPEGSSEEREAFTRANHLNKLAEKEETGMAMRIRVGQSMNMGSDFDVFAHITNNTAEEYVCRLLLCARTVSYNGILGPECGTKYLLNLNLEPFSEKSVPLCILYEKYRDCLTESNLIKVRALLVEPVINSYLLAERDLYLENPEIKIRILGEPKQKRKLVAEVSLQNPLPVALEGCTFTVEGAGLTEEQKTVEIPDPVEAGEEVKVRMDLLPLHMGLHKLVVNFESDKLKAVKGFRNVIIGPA
APOBEC3A full length assumed E72A: APOBEC3A full length assumed E72A (Homo sapiens, UniProt P31941)
SPT15 full length assumed: SPT15 full length assumed (Saccharomyces cerevisiae, UniProt P13393)
Sequence of UniProt P13393 (whole entry, looked up): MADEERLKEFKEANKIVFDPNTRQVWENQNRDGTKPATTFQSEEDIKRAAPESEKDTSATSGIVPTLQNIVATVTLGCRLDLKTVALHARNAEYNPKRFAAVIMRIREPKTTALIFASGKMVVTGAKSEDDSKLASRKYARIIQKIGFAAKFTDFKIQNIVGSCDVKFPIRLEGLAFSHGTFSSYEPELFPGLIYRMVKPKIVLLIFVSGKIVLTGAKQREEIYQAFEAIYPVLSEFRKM
U2AF2: U2AF2 148-342 (Homo sapiens, UniProt P26368)
Sequence of UniProt P26368 (whole entry, looked up): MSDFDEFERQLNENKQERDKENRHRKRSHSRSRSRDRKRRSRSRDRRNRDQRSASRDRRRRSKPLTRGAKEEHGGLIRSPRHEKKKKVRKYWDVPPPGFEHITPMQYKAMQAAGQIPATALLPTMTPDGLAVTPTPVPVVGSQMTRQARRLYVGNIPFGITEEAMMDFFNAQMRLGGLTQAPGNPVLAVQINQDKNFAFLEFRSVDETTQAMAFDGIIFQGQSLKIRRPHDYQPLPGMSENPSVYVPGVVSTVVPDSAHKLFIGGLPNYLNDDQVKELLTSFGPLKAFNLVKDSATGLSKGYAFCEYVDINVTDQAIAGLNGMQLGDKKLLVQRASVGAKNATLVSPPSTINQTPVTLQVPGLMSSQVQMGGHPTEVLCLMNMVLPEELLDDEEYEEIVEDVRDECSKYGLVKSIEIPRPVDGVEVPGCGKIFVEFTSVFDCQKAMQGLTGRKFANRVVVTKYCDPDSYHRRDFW
PHO4: PHO4 1-312 (Saccharomyces cerevisiae, UniProt P07270)
Sequence of UniProt P07270 (whole entry, looked up): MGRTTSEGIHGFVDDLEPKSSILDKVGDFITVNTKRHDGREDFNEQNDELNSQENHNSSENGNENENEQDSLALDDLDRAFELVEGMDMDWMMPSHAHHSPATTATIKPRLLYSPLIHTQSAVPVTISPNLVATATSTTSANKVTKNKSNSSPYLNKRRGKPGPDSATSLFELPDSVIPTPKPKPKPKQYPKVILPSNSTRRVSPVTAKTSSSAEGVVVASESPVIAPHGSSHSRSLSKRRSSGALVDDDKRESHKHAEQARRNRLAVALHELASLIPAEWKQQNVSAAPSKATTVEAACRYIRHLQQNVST
TOA1/TOA2 1-286; 1-122: TOA1/TOA2 1-286; 1-122 (Saccharomyces cerevisiae)
T1: TOA1/TOA2 1-286; 1-122 (Saccharomyces cerevisiae); chain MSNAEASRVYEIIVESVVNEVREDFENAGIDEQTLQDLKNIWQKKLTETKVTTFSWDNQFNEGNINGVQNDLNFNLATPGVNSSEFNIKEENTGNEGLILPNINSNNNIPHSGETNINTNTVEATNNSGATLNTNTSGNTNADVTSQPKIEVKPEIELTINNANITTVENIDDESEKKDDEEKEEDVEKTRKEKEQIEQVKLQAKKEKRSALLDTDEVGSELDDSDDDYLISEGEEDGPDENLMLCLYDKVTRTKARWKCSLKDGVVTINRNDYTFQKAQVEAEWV; chain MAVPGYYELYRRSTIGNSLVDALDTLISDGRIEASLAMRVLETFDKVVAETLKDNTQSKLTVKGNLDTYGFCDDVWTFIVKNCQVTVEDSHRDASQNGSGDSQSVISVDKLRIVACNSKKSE
B1: human ADP/ATP translocase 3; sequence looked up; chain MTEQAISFAKDFLAGGIAAAISKTAVAPIERVKLLLQVQHASKQIAADKQYKGIVDCIVRIPKEQGVLSFWRGNLANVIRYFPTQALNFAFKDKYKQIFLGGVDKHTQFWRYFAGNLASGGAAGATSLCFVYPLDFARTRLAADVGKSGTEREFRGLGDCLVKITKSDGIRGLYQGFSVSVQGIIIYRAAYFGVYDTAKGMLPDPKNTHIVVSWMIAQTVTAVAGVVSYPFDTVRRRMMMQSGRKGADIMYTGTVDCWRKIFRDEGGKAFFKGAWSNVLRGMGGAFVLVLYDELKKVI
B2: PDS5A, human; sequence looked up; chain MDFTAQPKPATALCGVVSADGKIAYPPGVKEITDKITTDEMIKRLKMVVKTFMDMDQDSEDEKQQYLPLALHLASEFFLRNPNKDVRLLVACCLADIFRIYAPEAPYTSHDKLKDIFLFITRQLKGLEDTKSPQFNRYFYLLENLAWVKSYNICFELEDCNEIFIQLFRTLFSVINNSHNKKVQMHMLDLMSSIIMEGDGVTQELLDSILINLIPAHKNLNKQSFDLAKVLLKRTVQTIEACIANFFNQVLVLGRSSVSDLSEHVFDLIQELFAIDPHLLLSVMPQLEFKLKSNDGEERLAVVRLLAKLFGSKDSDLATQNRPLWQCFLGRFNDIHVPVRLESVKFASHCLMNHPDLAKDLTEYLKVRSHDPEEAIRHDVIVTIITAAKRDLALVNDQLLGFVRERTLDKRWRVRKEAMMGLAQLYKKYCLHGEAGKEAAEKVSWIKDKLLHIYYQNSIDDKLLVEKIFAQYLVPHNLETEERMKCLYYLYASLDPNAVKALNEMWKCQNMLRSHVRELLDLHKQPTSEANCSAMFGKLMTIAKNLPDPGKAQDFVKKFNQVLGDDEKLRSQLELLISPTCSCKQADICVREIARKLANPKQPTNPFLEMVKFLLERIAPVHIDSEAISALVKLMNKSIEGTADDEEEGVSPDTAIRSGLELLKVLSFTHPTSFHSAETYESLLQCLRMEDDKVAEAAIQIFRNTGHKIETDLPQIRSTLIPILHQKAKRGTPHQAKQAVHCIHAIFTNKEVQLAQIFEPLSRSLNADVPEQLITPLVSLGHISMLAPDQFASPMKSVVANFIVKDLLMNDRSTGEKNGKLWSPDEEVSPEVLAKVQAIKLLVRWLLGMKNNQSKSANSTLRLLSAMLVSEGDLTEQKRISKSDMSRLRLAAGSAIMKLAQEPCYHEIITPEQFQLCALVINDECYQVRQIFAQKLHKALVKLLLPLEYMAIFALCAKDPVKERRAHARQCLLKNISIRREYIKQNPMATEKLLSLLPEYVVPYMIHLLAHDPDFTRSQDVDQLRDIKECLWFMLEVLMTKNENNSHAFMKKMAENIKLTRDAQSPDESKTNEKLYTVCDVALCVINSKSALCNADSPKDPVLPMKFFTQPEKDFCNDKSYISEETRVLLLTGKPKPAGVLGAVNKPLSATGRKPYVRSTGTETGSNINVNSELNPSTGNRSREQSSEAAETGVSENEENPVRIISVTPVKNIDPVKNKEINSDQATQGNISSDRGKKRTVTAAGAENIQQKTDEKVDESGPPAPSKPRRGRRPKSESQGNATKNDDLNKPINKGRKRAAVGQESPGGLEAGNAKAPKLQDLAKKAAPAERQIDLQR

Molecule	tested on	assay	test system	setting	scale	measurement	value
CAATACACTGTTATCAGACACACGTGTCAAGCTACTCGTTCGGTTATCCGGCGGTATGAC (dsDNA)	CBF1	MITOMI	double-stranded DNA, one strand shown	not purified	–	Kd	145 ± 7 nM
GGGAGCAGGAGAGAGGUCAGAUGAACAAGAGAUGGUAGGCCUAACCAUGCUUUCCUAUGCGUGCUAGUGUGA (ssRNA; 2'-fluoro pyrimidines)	TGM2	SPR	RNA	with: MgCl2 5 mM	higher = more binding	relative binding	82.2 RU
CAATACACTGTTATCAGATACACGTGTCGAGCTACTCGTTCGGTTATCCGGCGGTATGAC (dsDNA)	CBF1	MITOMI	double-stranded DNA, one strand shown	not purified	–	Kd	185 ± 9 nM
GGAACGAUACAGAGAAGAUUAG (ssRNA)	SART3 671-877 K841A (Homo sapiens, UniProt Q15020)	fluorescence polarization	RNA	–	baseline: RRM1-2, higher = weaker binding	fold affinity decrease	2.2 fold
CAATACACTGTTATCAGACACACGTGGCGAGCTACTCGTTCGGTTATCCGGCGGTATGAC (dsDNA)	CBF1	MITOMI	double-stranded DNA, one strand shown	not purified	–	Kd	193 ± 9 nM
AUUAUGUCGUUGGAUUUA (mixed DNA/RNA; single-stranded, dC at 8, rest RNA)	APOBEC3A full length assumed E72A	competitive fluorescence polarization	–	–	–	IC50	23000 ± 8000 nM
B1 (human ADP/ATP translocase 3)	CYB5R4 knockout human cells	PP4 interaction, 3xFLAG-PP4C IP-MS	–	concentration not given	baseline: CYB5R4 KO over parental	log2 fold change	-0.57
ATTCCAGTATGGCGTATAAATAAAGGCGAGGAGAATCAAGTCAATCGGTCC (dsDNA; 5'-amino-C6 primer)	SPT15 full length assumed	array	double-stranded DNA, one strand shown	TBP alone	–	Kd	5.05 ± 0.31 nM
GGGAGCAGGAGAGAGGUCAGAUGACACACGAGAGAUGUUGCCUGCUACCCACACCUAUGCGUGCUAGUGUGA (ssRNA; 2'-fluoro pyrimidines)	TGM2	SPR	RNA	with: MgCl2 5 mM	higher = more binding	relative binding	106 RU
GAATTCCTGTAAAGTAATGTGGAGCTCCGTTCGTCTCAAGTCAATCGGTCC (dsDNA; 5'-amino-C6 primer)	SPT15 full length assumed	array	double-stranded DNA, one strand shown	TBP alone	–	Kd	29.3 ± 2.2 nM
UUACACGAA (ssRNA)	U2AF2	sequencing of bound RNA	RNA	motif only	–	Kd	650 nM
AUUAUGUCGUUGGAUUUA (mixed DNA/RNA; single-stranded, dU at 7, dC at 8, rest RNA)	APOBEC3A full length assumed E72A	competitive fluorescence polarization	–	–	–	IC50	1600 ± 200 nM
GGGAGCAGGAGAGAGGUCAGAUGAACGAGAGAUGGUAGGCCUCCAAGCUCACGCCUAUGCGUGCUAGUGUGA (ssRNA; 2'-fluoro pyrimidines)	TGM2	SPR	RNA	with: MgCl2 5 mM	higher = more binding	relative binding	40.4 RU
GGAAGTGACGTACGTCGTGCACACGTGGTCCGGCGTCAAGTCAATCGGTCC (dsDNA; 5'-amino-C6 primer)	SPT15 full length assumed	array	double-stranded DNA, one strand shown	TBP alone	–	Kd	6.89 ± 0.46 nM
GUUUUUUUC (ssRNA)	U2AF2	sequencing of bound RNA	RNA	motif only	–	Kd	1090 nM
B2 (PDS5A, human)	CYB5R4 knockout human cells	PP4 interaction, 3xFLAG-PP4C IP-MS	–	concentration not given	baseline: CYB5R4 KO over parental	log2 fold change	-1.03
ATTATGTCGTTGGATTTATTT (ssDNA; single-stranded)	APOBEC3A full length assumed E72A	competitive fluorescence polarization	single-stranded DNA	–	–	IC50	430 ± 30 nM
GGGAGCAGGAGAGAGGUCAGAUGUUAGGAGUUACGAGAGAUGUGGCAUGUGACCUAUGCGUGCUAGUGUGA (ssRNA; 2'-fluoro pyrimidines)	TGM2	SPR	RNA	with: MgCl2 5 mM	higher = more binding	relative binding	210 RU
AUUUACAUU (ssRNA)	U2AF2	sequencing of bound RNA	RNA	motif only	–	Kd	11700 nM

Molecule	tested on	assay	test system	setting	scale	measurement	value
GGGAGCAGGAGAGAGGUCAGAUGUUAGGAGUUACGAGAGAUGUGGCAUGUGCCUAUGCGUGCUAGUGUGA (ssRNA; 2'-fluoro pyrimidines)	TGM2	SPR	RNA	with: MgCl2 5 mM	higher = more binding	relative binding	51.8 RU
GTTCCTGAAGGGGGGGCTATAAAACGGGGTGGGGGTCAAGTCAATCGGTCC (dsDNA; 5'-amino-C6 primer)	SPT15 full length assumed	array	double-stranded DNA, one strand shown	TBP alone	–	Kd	0.66 ± 0.02 nM
UGUUAUUUU (ssRNA)	U2AF2	sequencing of bound RNA	RNA	motif only	–	Kd	3230 nM
CAATACACTGTTATCAGACACACGTGTCGAGCTACTCGTTCGGTTATCCGGCGGTATGAC (dsDNA)	CBF1	MITOMI	double-stranded DNA, one strand shown	not purified	–	Kd	236 ± 16 nM
TCCTGAAGGGACGCCCTAGCTTGGTCCTATCGTCGTCAAGTCAATCGGTCC (dsDNA; 5'-amino-C6 primer)	SPT15 full length assumed	array	double-stranded DNA, one strand shown	TBP alone	–	Kd	4.23 ± 0.33 nM
GGGAGCAGGAGAGAGGUCAGAUGAUUAGAAAAUUACAAGAGAUGUGAUCGCUGACCUAUGCGUGCUAGUGUGA (ssRNA; 2'-fluoro pyrimidines)	TGM2	SPR	RNA	with: MgCl2 5 mM	higher = more binding	relative binding	46.8 RU
CAATACACTGTTATCAGACCCACGTGTCGAGCTACTCGTTCGGTTATCCGGCGGTATGAC (dsDNA)	CBF1	MITOMI	double-stranded DNA, one strand shown	not purified	–	Kd	139 ± 7 nM
GGGAGCAGGAGAGAGGUCAGAUGUUUAGGUAUUACGAGAGAUGUGGAUAUCGACCUAUGCGUGCUAGUGUGA (ssRNA; 2'-fluoro pyrimidines)	TGM2	SPR	RNA	with: MgCl2 5 mM	higher = more binding	relative binding	38.1 RU
CTCAGGAATTCCTATAACGTAATGTGGAGCTCAGTTCAAGTCAATCGGTCC (dsDNA; 5'-amino-C6 primer)	SPT15 full length assumed	array	double-stranded DNA, one strand shown	TBP alone	–	Kd	1.33 ± 0.07 nM
CAATACACTGTTATCAGAAACACGTGTCGAGCTACTCGTTCGGTTATCCGGCGGTATGAC (dsDNA)	PHO4	MITOMI	double-stranded DNA, one strand shown	not purified	–	Kd	120 ± 3 nM
AAUUUUAAU (ssRNA)	U2AF2	sequencing of bound RNA	RNA	motif only	–	Kd	12400 nM
TATTATTGGCACTTCTGTATAACTGGCTTTCATTCTCAAGTCAATCGGTCC (dsDNA; 5'-amino-C6 primer)	T1, TOA1/TOA2 1-286; 1-122 (Saccharomyces cerevisiae)	array	double-stranded DNA, one strand shown	TFIIA alone	–	Kd	54.7 ± 25.8 nM
UAUUUCAUU (ssRNA)	U2AF2	sequencing of bound RNA	RNA	motif only	–	Kd	2160 nM
TCCTGAAGGGGAGCCCTAGCTTGGTCCTATCGTCGTCAAGTCAATCGGTCC (dsDNA; 5'-amino-C6 primer)	T1, TOA1/TOA2 1-286; 1-122 (Saccharomyces cerevisiae)	array	double-stranded DNA, one strand shown	TFIIA alone	–	Kd	32.7 ± 7.14 nM
UUUUUAUAG (ssRNA)	U2AF2	sequencing of bound RNA	RNA	motif only	–	Kd	9280 nM
GGGAGCAGGAGAGAGGUCAGAUGAACGAGAGAUGGUAGGCCUCGCCUUCUAAACCUAUGCGUGCUAGUGUGA (ssRNA; 2'-fluoro pyrimidines)	TGM2	SPR	RNA	with: MgCl2 5 mM	higher = more binding	relative binding	211 RU
CAATACACTGTTATCAGACACACGTGACGAGCTACTCGTTCGGTTATCCGGCGGTATGAC (dsDNA)	PHO4	MITOMI	double-stranded DNA, one strand shown	not purified	–	Kd	162 ± 4 nM
UGUUACGGU (ssRNA)	U2AF2	sequencing of bound RNA	RNA	motif only	–	Kd	1090 nM
